Measurements gathered from unrelated publications.
Numbers after ± are the reported error.
MTNR1A: Melatonin receptor type 1A (MTNR1A, Homo sapiens, UniProt P48039)
Chain of UniProt P48039 (whole entry, looked up): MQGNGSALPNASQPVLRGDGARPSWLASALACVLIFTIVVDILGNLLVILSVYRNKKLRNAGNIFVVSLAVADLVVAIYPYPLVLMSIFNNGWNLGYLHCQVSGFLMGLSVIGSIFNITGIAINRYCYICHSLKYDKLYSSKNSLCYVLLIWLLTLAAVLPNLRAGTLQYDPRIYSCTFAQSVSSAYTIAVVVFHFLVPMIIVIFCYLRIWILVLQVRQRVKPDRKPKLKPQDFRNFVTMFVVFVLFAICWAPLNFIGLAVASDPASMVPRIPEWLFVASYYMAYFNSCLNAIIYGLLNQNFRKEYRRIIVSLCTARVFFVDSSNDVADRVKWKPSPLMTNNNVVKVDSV
PTH1R: Parathyroid hormone/parathyroid hormone-related peptide receptor (PTH1R, Homo sapiens, UniProt Q03431)
Chain of UniProt Q03431 (whole entry, looked up): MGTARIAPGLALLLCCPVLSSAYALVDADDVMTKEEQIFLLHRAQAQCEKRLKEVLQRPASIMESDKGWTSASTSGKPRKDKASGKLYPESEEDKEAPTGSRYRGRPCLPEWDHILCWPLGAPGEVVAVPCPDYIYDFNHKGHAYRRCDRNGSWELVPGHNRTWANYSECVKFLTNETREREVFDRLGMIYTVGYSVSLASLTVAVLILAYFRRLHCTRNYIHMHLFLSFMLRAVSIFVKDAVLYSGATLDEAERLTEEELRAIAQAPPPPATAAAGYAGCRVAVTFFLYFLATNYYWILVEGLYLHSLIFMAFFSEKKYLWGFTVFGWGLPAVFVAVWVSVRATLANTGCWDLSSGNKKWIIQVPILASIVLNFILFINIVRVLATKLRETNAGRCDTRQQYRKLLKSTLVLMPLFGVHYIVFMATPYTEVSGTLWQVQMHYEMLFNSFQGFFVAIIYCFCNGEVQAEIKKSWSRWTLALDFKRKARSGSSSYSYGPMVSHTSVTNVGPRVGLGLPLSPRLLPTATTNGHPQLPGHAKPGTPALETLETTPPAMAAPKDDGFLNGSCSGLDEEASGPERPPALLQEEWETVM
Chain of UniProt P25103 (whole entry, looked up): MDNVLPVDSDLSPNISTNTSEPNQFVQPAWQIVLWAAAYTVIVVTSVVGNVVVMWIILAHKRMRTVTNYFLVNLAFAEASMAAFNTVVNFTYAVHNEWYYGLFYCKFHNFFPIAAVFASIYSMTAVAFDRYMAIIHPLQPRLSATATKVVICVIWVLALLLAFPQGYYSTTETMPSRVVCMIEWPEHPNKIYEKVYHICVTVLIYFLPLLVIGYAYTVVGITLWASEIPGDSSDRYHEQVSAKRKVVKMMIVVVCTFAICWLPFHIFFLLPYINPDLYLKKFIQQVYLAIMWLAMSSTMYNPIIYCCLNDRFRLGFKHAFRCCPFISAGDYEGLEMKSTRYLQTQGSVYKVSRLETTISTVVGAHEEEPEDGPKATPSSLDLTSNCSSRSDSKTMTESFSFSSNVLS
Chain of UniProt Q9NSD7 (whole entry, unmodified, looked up): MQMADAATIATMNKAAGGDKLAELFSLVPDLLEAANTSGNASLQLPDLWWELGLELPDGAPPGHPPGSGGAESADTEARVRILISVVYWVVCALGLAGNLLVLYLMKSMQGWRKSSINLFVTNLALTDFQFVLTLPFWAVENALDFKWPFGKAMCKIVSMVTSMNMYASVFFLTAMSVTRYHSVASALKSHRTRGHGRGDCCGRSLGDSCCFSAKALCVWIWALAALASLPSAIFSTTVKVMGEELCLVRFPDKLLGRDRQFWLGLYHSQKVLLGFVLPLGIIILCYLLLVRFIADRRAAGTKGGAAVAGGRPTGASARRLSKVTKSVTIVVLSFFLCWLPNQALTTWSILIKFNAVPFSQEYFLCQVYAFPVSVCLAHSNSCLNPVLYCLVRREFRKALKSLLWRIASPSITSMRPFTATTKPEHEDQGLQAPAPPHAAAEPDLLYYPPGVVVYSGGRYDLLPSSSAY
Chain of UniProt P34972 (whole entry, unmodified, looked up): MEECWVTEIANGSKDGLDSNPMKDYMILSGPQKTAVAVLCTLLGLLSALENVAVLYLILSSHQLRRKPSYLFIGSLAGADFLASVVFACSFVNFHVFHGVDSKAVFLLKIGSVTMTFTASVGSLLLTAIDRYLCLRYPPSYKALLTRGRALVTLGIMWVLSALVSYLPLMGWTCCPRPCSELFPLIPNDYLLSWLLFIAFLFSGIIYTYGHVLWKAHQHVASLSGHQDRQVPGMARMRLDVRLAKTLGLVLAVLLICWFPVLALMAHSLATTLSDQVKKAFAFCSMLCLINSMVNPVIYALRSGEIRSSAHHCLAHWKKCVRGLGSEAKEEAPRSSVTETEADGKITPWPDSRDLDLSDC
Chain of UniProt Q969F8 (whole entry, unmodified, looked up): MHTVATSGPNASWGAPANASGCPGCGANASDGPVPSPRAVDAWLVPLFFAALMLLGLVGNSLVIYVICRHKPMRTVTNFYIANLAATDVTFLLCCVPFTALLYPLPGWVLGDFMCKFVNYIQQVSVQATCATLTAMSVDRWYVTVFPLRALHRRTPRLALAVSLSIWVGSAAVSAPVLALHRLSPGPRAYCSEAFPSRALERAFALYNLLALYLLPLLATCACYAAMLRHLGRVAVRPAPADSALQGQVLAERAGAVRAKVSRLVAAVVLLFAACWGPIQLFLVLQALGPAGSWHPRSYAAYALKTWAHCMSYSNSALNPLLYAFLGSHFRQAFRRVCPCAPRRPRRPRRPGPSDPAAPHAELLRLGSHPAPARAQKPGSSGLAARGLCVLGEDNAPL

For `C=CC(=O)Nc1cccc(Cn2ncc3cnc(Nc4cnn(CCOC)c4)nc32)c1`, “percent of control” read 79% (PIK3C2B human; binding, KINOMEscan; 100 nM; lower = stronger binding).
With `CNC(=N)NCCC[C@H](NC(=O)[C@H](CC(C)C)NC(=O)NNC(=O)[C@H](Cc1ccccc1)NC(=O)[C@@H](NC(=O)[C@H](CC(N)=O)NC(=O)[C@@H]1C[C@@H](O)CN1C(=O)[C@@H](Cc1ccc(O)cc1)NC(C)=O)[C@@H](C)O)C(=O)N[C@@H](Cc1c[nH]c2ccccc12)C(N)=O` the Emax was 62.2% (KiSS-1 receptor (KISS1R, Homo sapiens, UniProt Q969F8, L148G); inositol phosphate, agonist; HEK293).
`Nc1ncc(-c2cc(-c3cnn(CC(F)(F)F)c3)ncc2F)nc1C(=O)NC1CNCC(F)C1` (stereo not drawn) gave a remaining binding of 49% (MET; KINOMEscan competition binding; 1 µM; reference: DMSO control).
`COc1cc2c(CCNC(C)=O)c[nH]c2cc1Cl` has an Emax of 86% (MTNR1A; cAMP, agonist, TR-FRET; CHO-K1; 20 min).
Under “log2 fold change”, `COC1CN([C@H]2CC[C@H]([C@@]3(C)Oc4c(Cl)cc(C(=O)NCc5c(SC)cc(C)[nH]c5=O)c(C)c4O3)CC2)C1` is recorded as 0.563 (RNA-seq, item: TBC1D12 mouse homolog; mouse, HT-1376 xenograft, whole blood; dose not given; reference: vehicle).
`CCCCCCCCCCCCCCCC(=O)N[C@@H](CCC(=O)O)C(=O)NCCCC[C@H](NC(=O)[C@H](CCCCNC(=N)N)NC(=O)[C@H](CCC(N)=O)NC(=O)[C@H](Cc1c[nH]cn1)NC(=O)[C@H](CCCC)NC(=O)[C@H](CC(C)C)NC(=O)[C@H](CCC(N)=O)NC(=O)[C@@H](NC(=O)[C@H](CCC(=O)O)NC(=O)C(C)(C)NC(=O)[C@@H](NC(=O)C1(N)CCCC1)C(C)C)[C@@H](C)CC)C(N)=O` has an Emax of 129 ± 2% (PTH1R; cAMP response, agonist, GloSensor cAMP; GP-2.3; washout phase).
With `O=C1C[C@H](c2nc(-c3ccc(F)c4cn[nH]c34)no2)CCCN1c1ccc(F)cc1` (racemic) the Emax was 45.7% (CNR2 (Homo sapiens, UniProt P34972, F281A); cAMP level, GloSensor cAMP; CB2 mutant; reference: wild-type receptor).
`COc1ccc2[nH]c(Br)c(CCNC(C)=O)c2c1` gave an Emax of 85% (MTNR1A; GTPγS binding, agonist, radiometric; cell membranes).
`CCCCCCCCCCCCCCCC(=O)N[C@@H](CCCNC(=N)N)C(=O)NCCCC[C@H](NC(=O)[C@H](CCC(N)=O)NC(=O)[C@H](Cc1c[nH]cn1)NC(=O)[C@H](CCCC)NC(=O)[C@H](CC(C)C)NC(=O)[C@H](CCC(N)=O)NC(=O)[C@@H](NC(=O)[C@H](CCC(=O)O)NC(=O)C(C)(C)NC(=O)[C@@H](NC(=O)C1(N)CCCC1)C(C)C)[C@@H](C)CC)C(N)=O` has an Emax of 112 ± 5.3% (PTH1R; cAMP response, agonist, GloSensor cAMP; GP-2.3; ligand-on phase).
`CSCC[C@H](NC(=O)[C@H](CC(C)C)NC(=O)CNC(=O)[C@H](Cc1ccccc1)NC(=O)[C@H](Cc1ccccc1)NC(=O)[C@@H](N)CCC(N)=O)C(N)=O` gave an Emax of 89 ± 7% (Substance-P receptor, with miniGs (TACR1, Homo sapiens, UniProt P25103); miniGs recruitment, BRET; HEK293; 30 min; reference: 10 µM substance P).
For `Cc1ncsc1-c1ccc(C(C)NC(=O)C2CC(O)CN2C(=O)C(NC(=O)CCCCCCCCCCN2CCCC(Nc3ncc(Cl)c(Nc4ccccc4S(=O)(=O)C(C)C)n3)C2)C(C)(C)C)cc1` (stereo not drawn), “log2 fold change” read -1.17 (22Rv1; RNA-seq, item: SOWAHC mRNA; concentration not given; reference: DMSO).
For `CCc1cc(O)cc2c(/C=N/NC(=N)NCCc3ccc(Cl)cc3)c[nH]c12`, the Emax was 79.3 ± 13.8% (RXFP3 (Homo sapiens, UniProt Q9NSD7, T162A); HEK-293T; reference: wild type).

Excerpt of the above:
With `CNC(=N)NCCC[C@H](NC(=O)[C@H](CC(C)C)NC(=O)NNC(=O)[C@H](Cc1ccccc1)NC(=O)[C@@H](NC(=O)[C@H](CC(N)=O)NC(=O)[C@@H]1C[C@@H](O)CN1C(=O)[C@@H](Cc1ccc(O)cc1)NC(C)=O)[C@@H](C)O)C(=O)N[C@@H](Cc1c[nH]c2ccccc12)C(N)=O` the Emax was 62.2% (KiSS-1 receptor (KISS1R, Homo sapiens, UniProt Q969F8, L148G); inositol phosphate, agonist; HEK293).
